Assay results of several laboratories.
Every numbered part comes from another study and shows a few of its results, in no order.

Block 1
Target: Prothrombin, mature alpha-thrombin (F2, Homo sapiens, UniProt P00734)
Technique: aptamer microarray, sandwich
Molecule type: DNA with 2'F-ANA
Sample: in vitro
Tested at: 200 nM
Notes: whole 15-mer aptamer, many near background
With: Cy3 exosite-II aptamer, 400 nM
Direction: higher = stronger binding
Quantity: mean fluorescence intensity
Oligonucleotide: GGTTGGTGTGGTTGG
Modification = 2'F-ANA at 2 4 5 6 7 8 10 12 14 15; result = 105 a.u.
Modification = 2'F-ANA at 1 2 3 7 9 10 12 14; result = 59.2 a.u.
Modification = 2'F-ANA at 3 4 5 7 8 12 15; result = 240 a.u.
Modification = 2'F-ANA at 2 3 4 6 7 10 13; result = 184 a.u.
Modification = 2'F-ANA at 3 4 9; result = 791 a.u.
Modification = 2'F-ANA at 5 7 11 12 13 14 15; result = 44.6 a.u.
Modification = 2'F-ANA at 2 4 7 8 10 14 15; result = 71.5 a.u.
Modification = 2'F-ANA at 10 11 15; result = 157 a.u.
Modification = 2'F-ANA at 1 2 4 5 6 7 8 9 11 15; result = 58.3 a.u.
Modification = 2'F-ANA at 1 2 3 4 5 6 7 8 11 12 13; result = 81 a.u.
Modification = 2'F-ANA at 2 4 5 6 7 12 13; result = 84 a.u.
Modification = 2'F-ANA at 1 2 3 6 7 9 10 12 13 15; result = 96.1 a.u.
Modification = 2'F-ANA at 3 6 7 9 10 12 13 14; result = 379 a.u.
Modification = 2'F-ANA at 3 4 5 7 8 11 12 13 14 15; result = 57.7 a.u.
Modification = 2'F-ANA at 3 4 7 8 9 10 11 12; result = 358 a.u.
Modification = 2'F-ANA at 1 2 5 9 13; result = 55.7 a.u.
Modification = 2'F-ANA at 1 2 3 4 6 10 11 14; result = 50.1 a.u.
Modification = 2'F-ANA at 1 3 4 7 9 10 12 15; result = 85.1 a.u.
Modification = 2'F-ANA at 2 6 7 9 10 11 12 13 14 15; result = 90.1 a.u.
Modification = 2'F-ANA at 1 2 3 6 9 10 14 15; result = 54.2 a.u.
Modification = 2'F-ANA at 3 5 8 9 11 12 13 14 15; result = 91 a.u.
Modification = 2'F-ANA at 2 3 5 6 7 8 9 10 12 13 15; result = 71.7 a.u.

Block 2
Target: Interferon regulatory factor 7, full length, phosphomimetic (IRF7, Homo sapiens, UniProt Q92985, residues 1-503, S471D/S472D/S475D/S476D/S477D/S483D/S484D/S487D)
Technique: protein-binding microarray
Molecule type: double-stranded DNA, one strand shown
Sample: in vitro
Tested at: 2200 nM top
Notes: 60-bp whole probe
With: salmon DNA 0.4 mg/ml
Relative to: random background probes
Direction: higher = stronger binding
Quantity: fitted relative affinity
Shared flanks, not repeated: GCCTAGCAC … GTCTTGATTCGCTTGACGCTGCTG
Construct (chain): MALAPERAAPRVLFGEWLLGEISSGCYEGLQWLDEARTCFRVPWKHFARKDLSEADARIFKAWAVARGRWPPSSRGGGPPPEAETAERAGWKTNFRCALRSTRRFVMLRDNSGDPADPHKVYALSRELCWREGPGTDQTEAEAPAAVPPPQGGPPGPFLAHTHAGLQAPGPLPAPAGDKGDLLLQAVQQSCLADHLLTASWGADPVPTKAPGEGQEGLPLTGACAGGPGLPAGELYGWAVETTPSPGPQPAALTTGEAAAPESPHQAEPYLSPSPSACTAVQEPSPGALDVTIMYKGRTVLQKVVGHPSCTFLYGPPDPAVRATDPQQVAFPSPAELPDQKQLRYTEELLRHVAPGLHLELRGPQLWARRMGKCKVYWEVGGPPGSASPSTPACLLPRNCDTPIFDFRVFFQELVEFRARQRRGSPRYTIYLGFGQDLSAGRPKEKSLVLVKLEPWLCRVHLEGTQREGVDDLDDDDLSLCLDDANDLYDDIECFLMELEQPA
Oligonucleotide = TTAGATATCGGGTTTCGATCAGTGCTA; result = 1.8 z-score
Oligonucleotide = TTCGGTTTCGGTTCCGGTTAGTGCTAG; result = 13.7 z-score
Oligonucleotide = TTAGATTTTGGGTTTCGATTAGTGCTA; result = 3.17 z-score
Oligonucleotide = CTAGCTTCCATTTTCTGAACGTGCTAG; result = 3.34 z-score
Oligonucleotide = TTAGGGATCGGGTTTCGGTTAGTGCTA; result = 2.88 z-score
Oligonucleotide = TCATGTGTATATATAATACTGTGCTAG; result = 0.674 z-score
Oligonucleotide = TCACCTGTGCTATTTATAACTGTGCTA; result = 0.752 z-score
Oligonucleotide = TCAATTATCCTTGTCCCACTGTGCTAG; result = 1.41 z-score
Oligonucleotide = TCACCTTTCTCTTGGAGACTGTGCTAG; result = 2.22 z-score
Oligonucleotide = TTAGATTTCAGTACCGATTAGTGCTAG; result = 0.494 z-score
Oligonucleotide = TTAGGTTCCGGGTTCGGTTAGTGCTAG; result = 2.66 z-score
Oligonucleotide = CATACAATTTCAGATTCCAGTGTGCTA; result = 1.43 z-score
Oligonucleotide = TCATCTTTGCTCATTTTTACTGTGCTA; result = 1.37 z-score
Oligonucleotide = TTAGGACTGAGTATCGGTTAGTGCTAG; result = -0.106 z-score
Oligonucleotide = TCACACATTTTTTTCATACTGTGCTAG; result = 1.53 z-score
Oligonucleotide = GACGAACTGGGGTATAGAGACGTGCTA; result = 0.2 z-score
Oligonucleotide = TCAGGCCTCTTCATTCATACTGTGCTA; result = 0.424 z-score
Oligonucleotide = TCATTTTTCTAAACCATACTGTGCTAG; result = 1.96 z-score
Oligonucleotide = TTACATCTCAGACTGGATTAGTGCTAG; result = 0.705 z-score

Block 3
Target: Centromere-binding protein 1, full length, N-terminal tag (CBF1, Saccharomyces cerevisiae, UniProt P17106, residues 1-351)
UniProt P17106, sequence (whole entry, looked up): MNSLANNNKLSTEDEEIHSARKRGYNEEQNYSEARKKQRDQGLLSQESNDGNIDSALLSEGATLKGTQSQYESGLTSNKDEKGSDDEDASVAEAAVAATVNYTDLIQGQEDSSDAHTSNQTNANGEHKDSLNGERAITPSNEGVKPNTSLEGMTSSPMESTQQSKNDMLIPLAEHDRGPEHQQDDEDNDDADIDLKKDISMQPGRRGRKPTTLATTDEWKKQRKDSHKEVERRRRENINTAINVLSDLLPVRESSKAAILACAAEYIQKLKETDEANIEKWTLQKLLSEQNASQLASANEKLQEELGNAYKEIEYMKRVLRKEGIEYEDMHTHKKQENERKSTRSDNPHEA
Technique: protein-binding microarray
Molecule type: double-stranded DNA, one strand shown
Sample: in vitro
Tested at: 0.8 µM
Notes: whole 60-bp probe, no competitor
Direction: higher = stronger binding
Quantity: fluorescence intensity
Shared flanks, not repeated: … GTCTTGATTCGCTTGACGCTGCTG
Oligonucleotide = CTAGGACGCGCCGCTCACCCGCACGGCAGAGACTTC; result = 464 a.u.
Oligonucleotide = CTAAAAGTTTTGAATAACACGTGCCTTTGATTTTTC; result = 10800 a.u.
Oligonucleotide = CTAAATCTCTAAGTACACGTGCATTTGGACCTATTC; result = 5150 a.u.
Oligonucleotide = CTATACATATTTGGTTGCGTGGTATATAGAATCTTC; result = 573 a.u.
Oligonucleotide = GAACAGCCTCGTCATCACCCAATAAAGAGTTTATAG; result = 552 a.u.
Oligonucleotide = CTACAATACCACCATGACGTCATTAACTTAAATTTC; result = 537 a.u.
Oligonucleotide = GAATAATTTTGAGTTCACCTGTTGATGTGGTGCTAG; result = 518 a.u.
Oligonucleotide = GAATGAATTCAGCATCACCTAGTTATTAATGACTAG; result = 493 a.u.
Oligonucleotide = CTAGAGGAGCTTTAAAACATCAGGATAGTGTGCTTC; result = 501 a.u.
Oligonucleotide = GAATTCTTTCTGCATCACGGTGGGCCTTGCCCTTAG; result = 562 a.u.
Oligonucleotide = CTATGAAGGGTCGGTGACGTGGAAATTTTGACATTC; result = 546 a.u.
Oligonucleotide = CTATAGCAGAACAAACACATGATATATTCAAAATTC; result = 881 a.u.
Oligonucleotide = GAATTCTGCCTATGCAAGGTGACCGTTTTTGCATAG; result = 524 a.u.
Oligonucleotide = GAAGGATCTTTCTAACGTGTGTTGTCTACTAGTTAG; result = 537 a.u.
Oligonucleotide = CTAAAAGGTTTTTTACAGCTGATGATTGATGCATTC; result = 530 a.u.
Oligonucleotide = GAATCATATCTTTCCCACGTGGCCTTAACTACGTAG; result = 5540 a.u.
Oligonucleotide = GAAGTCCAAACATGACTCACGAGTGGAGTCAAGTAG; result = 549 a.u.
Oligonucleotide = GAAGCTGATATATCTCGAGTCACCTTCAAAAATTAG; result = 548 a.u.
Oligonucleotide = CTAATGCACCTGGTGCACGCTGCGAAGGTGACGTTC; result = 829 a.u.
Oligonucleotide = GAATATTAGCTTGAACTCGTGGTTCCTATTGTCTAG; result = 597 a.u.
Oligonucleotide = CTATGAAGTACATAATGCATCATGAAGAAAGAATTC; result = 563 a.u.
Oligonucleotide = CTATTTTTCCTCTGGCGCGTGAATAGCCCGCAGTTC; result = 566 a.u.
Oligonucleotide = CTATCTTTTCTATCTCACCTGTTTATATATTGCTTC; result = 688 a.u.
Oligonucleotide = TGTACGAAGCTATGATGACGTGGTATAGTAGTTAGG; result = 538 a.u.
Oligonucleotide = CCTAACTACTATAGTCACATTAAATAGCTTCGTACA; result = 550 a.u.

Block 4
Target: RNA binding protein fox-1 homolog 2, RRM domain, GST-SBP tag (RBFOX2, Homo sapiens, UniProt O43251-10, residues 100-194)
Technique: RNA Bind-n-Seq
Molecule type: RNA
Sample: in vitro
Tested at: 365 nM
Notes: natural RNA segment, single round, ends assumed
Relative to: no-protein control
Direction: higher = stronger binding
Quantity: RBNS enrichment (R)
Shared flanks, not repeated: GGGAGUUCUACAGUCCGACGAUC … UGGAAUUCUCGGGUGCCAA
Construct (chain): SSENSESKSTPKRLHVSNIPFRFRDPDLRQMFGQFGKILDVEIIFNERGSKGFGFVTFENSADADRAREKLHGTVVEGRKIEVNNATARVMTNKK
Oligonucleotide = GGAACCUUUUCUUAAAAUGAAAAUAAUUACUGCUAUUUUAAAAUUUCUUGAUCAUUGAAUGUGAGACCCUUCUAACAUGAUUUGAGAAGCUGUACAAGUAUAGGCAGAGU; result = 0.797
Oligonucleotide = UGGUUUGGGGAGGUCUGUUUGUUACAUAAAAAGGACCUUUCGGUGUAAGAAAUUGCCGUUUUUACCCUGCCCUGGCUGGCAUGUGAGAAGCCAUGGAAGGUUGUGGUUGU; result = 19
Oligonucleotide = GACAGAACUGGUUCAUGUGUUAUGAGAGAGGAAAAGAGAGGAAAGAACAAAACAAAACAAAACACCACAAACCAAAAACAUCUGGGCUAGCCAGGCAUGAUUGCAAUGUC; result = 1.16
Oligonucleotide = CACUGCAAGUUUUGAAGGAGUCAGUAGCCAUUAAACCUAAAUUUAAUUUAUUUUAUUAAAAUAACAUAAGGAACCAACUGUAUUGGCUCAAUAAAAACAAAAUUAAAACC; result = 0.729
Oligonucleotide = GCUUCGCGCCCUUCUCGGGAGGCAGCUUUUUCGAGCACGAGGGCCGCCCGUUGUGCGAGAACCACUUCCACGCACGACGCGGCUCGCUGUGCGCCACGUGUGGCCUCCCU; result = 0.312
Oligonucleotide = CCAGCCUUCUCAGUGGACUUGCCCCUCCUAAGCAGAGAAGGCCUAUGAGGUUGCUUGCUGCUGGGAAGCCUGGCAGAGCCAAUUACCACCCUCUGCUGCUUAGUGCUUGG; result = 0.477
Oligonucleotide = CAGAUCUCAGUGGGUCACAUAACUUGCUUUACACUCAUCUUGUUGUGUCAGAAAUAAAGUGUUCGUGCUUUUCCUUGUCAGGAGUCCCGUGUUUGUCACUUGUUGUGUGG; result = 0.812
Oligonucleotide = AGGUCUCUGGUCUCCCUACCCCUGCUGUGCUGAUCACAGUCCCUCCCAGUUACCACUAGGACAUUCUCUAGUAGAUCCAUUUUGCUGUCACUUUAUUCUAUGGCUAGAAA; result = 0.546
Oligonucleotide = CUGCCCGCUGGGGACCAGUUCCCACGAGCCUGUCACACCCCAGUCCUGUGUUACAAUUUUUCGUUUGGUCUUAGGUCUUCCCAUGGCUCCCUCUCUCCUGGACUGGUUAU; result = 0.279
Oligonucleotide = UCCCGCCCCUCUGCUUUCGCAGGAGCUCUUGUGCUUGAGUUCAGUGUUAGUGGUAGCGUGGCUCACUCCACUUGGAGGUGGCGGCCGUCUGACCGUGUGUUACUGCUUUG; result = 0.398
Oligonucleotide = CAAGAGAAUUUUUAAUUGUAAAUGCAGACUUGGGAAGGACUUGGACUUUUAACCUGGUUUUGCUUUUGCUUUUCCUGACUCCCUUUGCUCAGAGUCAGUUGCACACCAGU; result = 0.791
Oligonucleotide = CUUAAAACUGCCGAGCCCCACUCCAUGUAAUAGGAUUCCUGGGCUUCCUCAAUGGGGGUUCAUGUUCUUGGACUGCGGGCCCUCAGUCCUUAACUGGAAAGUGACCGUCC; result = 0.239

Excerpt of the above (block 3):
Oligonucleotide = CTATGAAGGGTCGGTGACGTGGAAATTTTGACATTC; result = 546 a.u.
Oligonucleotide = CTATAGCAGAACAAACACATGATATATTCAAAATTC; result = 881 a.u.
Oligonucleotide = GAATTCTTTCTGCATCACGGTGGGCCTTGCCCTTAG; result = 562 a.u.
Oligonucleotide = CTAAATCTCTAAGTACACGTGCATTTGGACCTATTC; result = 5150 a.u.
Oligonucleotide = GAATAATTTTGAGTTCACCTGTTGATGTGGTGCTAG; result = 518 a.u.
Oligonucleotide = GAATCATATCTTTCCCACGTGGCCTTAACTACGTAG; result = 5540 a.u.
Oligonucleotide = CTATGAAGTACATAATGCATCATGAAGAAAGAATTC; result = 563 a.u.
Oligonucleotide = GAATATTAGCTTGAACTCGTGGTTCCTATTGTCTAG; result = 597 a.u.
Oligonucleotide = CTATCTTTTCTATCTCACCTGTTTATATATTGCTTC; result = 688 a.u.
